Earlier results that unrelated publications cite.
Lines come from different studies, so protocols differ. Numbers after ± are the reported error.
BRD4 BD2: Bromodomain-containing protein 4, BD2 (BRD4, Homo sapiens, UniProt O60885)
OfChi-h: Chitinase (OfChi-h, Ostrinia furnacalis, UniProt Q4AE59)
DRD2: D(2) dopamine receptor (DRD2, Homo sapiens, UniProt P14416)
Sequence of UniProt P14416 (whole entry, looked up): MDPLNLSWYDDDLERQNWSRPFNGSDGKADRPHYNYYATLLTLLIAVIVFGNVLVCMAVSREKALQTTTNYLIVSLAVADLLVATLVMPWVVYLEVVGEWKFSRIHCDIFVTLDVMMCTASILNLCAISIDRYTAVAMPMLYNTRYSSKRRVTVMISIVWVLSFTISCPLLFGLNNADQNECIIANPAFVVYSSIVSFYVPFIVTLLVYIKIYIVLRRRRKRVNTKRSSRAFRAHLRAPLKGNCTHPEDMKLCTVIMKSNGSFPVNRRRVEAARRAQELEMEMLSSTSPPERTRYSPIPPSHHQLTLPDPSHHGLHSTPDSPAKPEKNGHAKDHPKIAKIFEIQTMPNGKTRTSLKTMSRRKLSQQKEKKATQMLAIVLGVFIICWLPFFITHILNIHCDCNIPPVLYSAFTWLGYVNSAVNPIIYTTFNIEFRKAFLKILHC
Sequence of UniProt P21397 (whole entry, looked up): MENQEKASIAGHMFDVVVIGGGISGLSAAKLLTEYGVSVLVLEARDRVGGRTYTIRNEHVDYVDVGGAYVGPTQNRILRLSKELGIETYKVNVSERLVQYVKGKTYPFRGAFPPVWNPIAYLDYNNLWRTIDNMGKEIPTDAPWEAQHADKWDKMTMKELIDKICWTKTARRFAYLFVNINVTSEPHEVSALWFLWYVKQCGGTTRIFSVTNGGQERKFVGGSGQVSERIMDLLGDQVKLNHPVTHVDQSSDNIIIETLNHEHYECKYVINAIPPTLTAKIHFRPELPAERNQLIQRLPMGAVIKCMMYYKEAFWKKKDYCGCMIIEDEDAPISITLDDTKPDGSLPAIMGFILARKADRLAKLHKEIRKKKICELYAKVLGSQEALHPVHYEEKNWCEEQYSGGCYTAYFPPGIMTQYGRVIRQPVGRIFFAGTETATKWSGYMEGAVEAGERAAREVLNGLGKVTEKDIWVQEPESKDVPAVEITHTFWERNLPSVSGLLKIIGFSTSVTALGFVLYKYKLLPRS

With `O[C@@H]1Cc2cccc(OCCF)c2C[C@H]1N1CCC(c2ccccc2)CC1` the Ki was 0.0196 ± 0.0011 µM (vesicular acetylcholine transporter; binding; PC12 expressing VAChT).
With `Nc1nc2c(CN[C@H](CO)CCP(=O)(O)O)c[nH]c2c(=O)[nH]1` the Ki was 0.02 ± 0.0003 µM (human HGPRT; inhibitor).
The Ki of `O=C(C=C(O)C(F)(F)C(F)(F)F)c1cccs1` is reported as 0.045 ± 0.025 µM (Plasmodium falciparum formate-nitrite transporter; binding, FCCS; isolated protein).
`Cn1cc2c3c(c[nH]c(=O)c31)CN(c1ccccn1)c1ccc(CS(C)(=O)=O)cc1-2` has a Ki of 0.0021 µM (BRD4 BD2; binding; bromodomain 2).
For `NS(=O)(=O)c1nnc(NC(=O)CCC2CCCCC2)s1`, the Ki was 0.346 µM (Enterococcus faecalis gamma-carbonic anhydrase; enzyme activity, inhibitor).
`CN(C)c1nc(NCc2ccccc2)c(/N=N/c2ccc(Cl)cc2)c(N(C)C)n1` has a Ki of 0.0647 µM (OfChi-h).
With `N[C@H]1C[C@@H](C(=O)O)CC1=C(Cl)Cl` the Ki was over 10000 µM (GABA aminotransferase, pig; reversible inhibitor; together with: GABA substrate).
`O=C(C=C(O)C(F)(F)C(F)(F)F)c1ccc(NC(=O)c2ccccc2)nc1` has a Ki of 0.016 ± 0.002 µM (Plasmodium falciparum formate-nitrite transporter; binding, FCCS; isolated protein).
With `COc1ccccc1N1CCC2(CCN(CCCSc3nnc(-c4ccccc4)n3C)CC2)CC1` the Ki was 10.9 µM (DRD2; binding).
With `FC(F)(F)C(F)(F)c1nc(-c2cccnc2)n[nH]1` the Ki was 1.61 ± 0.298 µM (Plasmodium falciparum formate-nitrite transporter; binding, FCCS; isolated protein).
The Ki of `O=c1[nH]c(O)nc2c(CN[C@H](CO)CCP(=O)(O)O)c[nH]c12` is reported as over 100 µM (human HGPRT; inhibitor).
`COC(F)(F)C(F)(F)C(O)=CC(=O)c1cccnc1` gave a Ki of 0.093 ± 0.002 µM (Plasmodium falciparum formate-nitrite transporter; binding, FCCS; isolated protein).
The Ki of `CCn1nc(C2CC2)cc1Nc1nc(C(=O)NC)nc2[nH]c3cc(-c4c(C)noc4C)c(OC)cc3c12` is reported as 0.001 ± 0.0001 µM (BRD4 BD2; binding; bromodomain 2).
For `OCC1OC(n2cnc3c(NCc4ccc(Br)s4)ncnc32)C(O)C1O` (stereo not drawn), the Ki was 0.05 µM (ENT1 (guinea pig); binding; membrane fraction).
`Nc1nc2c(CNCCCP(=O)(O)O)c[nH]c2c(=O)[nH]1` has a Ki of 1 ± 0.005 µM (human HGPRT; inhibitor).
With `Cc1cc2c(c(O)c1O)C(=O)c1c(O)cc(O)cc1C2=O` the Ki was 3.97 µM (Amine oxidase [flavin-containing] A (MAOA, Homo sapiens, UniProt P21397)).
With `c1ccc2c(c1)CCNC2c1c[nH]c2cnccc12` (stereo not drawn) the IC50 was over 100 µM (COLO 320 ABCB1-resistant colon; cytotoxicity).
With `O=C1CS/C(=N\N=C\c2cccc3ccccc23)N1CCOc1ccccc1` the Ki was 4.1 µM (OfChi-h).
The Ki of `Nc1cccc(-c2ccc3c(=O)[nH]c(Nc4ccccc4)cc3c2)c1` is reported as 1.9 µM (CDC25B; reversible competitive inhibitor).
`O=c1[nH]cnc2c(CN[C@H](CO)CCP(=O)(O)O)c[nH]c12` has a Ki of 0.4 ± 0.04 µM (human HGPRT; inhibitor).
For `COc1ccc(Nc2nc(Nc3ccc(OCC[18F])cc3)ncc2Br)cc1`, “tumour to tissue ratio” read 2.46 (S180 tumour-bearing mice; intravenous, 5 min; relative to: tumour over muscle).
For `COc1ccccc1N1CCN(CCCCNC(=O)c2ccc3[nH]c(=O)sc3c2)CC1`, the Ki was 0.0521 µM (DRD2; binding).
`CCN(CC)c1ccc(C(=O)C=C(O)C(F)(F)C(F)(F)F)cn1` has a Ki of 0.142 ± 0.024 µM (Plasmodium falciparum formate-nitrite transporter; binding, FCCS; isolated protein).
With `Cn1c(SCCCN2CCOC(c3ccc(C(F)(F)F)cc3)C2)nnc1-c1ccc(-c2cnco2)cc1` (stereo not drawn) the Ki was 1.48 µM (DRD2; binding).
With `O=c1c(-c2ccc(F)cc2)c[nH]c2ccnc(Cl)c12` the Ki was 3.13 µM (WDR5).
For `CN(Cc1c[nH]c2c(=O)[nH]cnc12)[C@H](CO)CCP(=O)(O)O`, the Ki was 4.6 ± 0.07 µM (human HGPRT; inhibitor).
The Ki of `CCCNc1ccc(C(=O)C=C(O)C(F)(F)C(F)(F)F)cn1` is reported as 0.022 µM (Plasmodium falciparum formate-nitrite transporter PfFNT; binding, affinity-isolated protein).
With `c1cnc2[nH]cc(C3NCCc4sccc43)c2c1` (stereo not drawn) the IC50 was over 100 µM (COLO 320 ABCB1-resistant colon; cytotoxicity).
`O=C(Nc1cc(-c2ccncc2)c[nH]c1=O)c1ccccc1` gave a Ki of 1.3 µM (ITK).
For `O=c1[nH]cnc2c(CNCCCP(=O)(O)O)c[nH]c12`, the Ki was 1.3 ± 0.03 µM (human HGPRT; inhibitor).
The Ki of `CCc1c(Cl)cccc1N1CCN(C[C@H](F)CCNC(=O)c2cc3ccccc3[nH]2)CC1` is reported as 0.0802 ± 0.0138 µM (dopamine D2 receptor; binding).
With `CCC(=O)Nc1ccc(C(=O)C=C(O)C(F)(F)C(F)(F)F)cn1` the Ki was 0.027 ± 0.004 µM (Plasmodium falciparum formate-nitrite transporter; binding, FCCS; isolated protein).
`COc1cc2c(cc1NS(=O)(=O)c1cc(Br)ccc1OC)OC(C)(C)C(=O)N2` has a Ki of 0.155 µM (Bromodomain-containing protein 4, BD1 (BRD4, Homo sapiens, UniProt O60885); binding; bromodomain 1).
